Published values gathered from unrelated publications.
Each numbered part is a random draw from the data of one study; scales do not carry over between parts. Positions count from the first letter of the parent shown.

Sample 1
Target: UBE2A UBC core domain (UniProt P49459)
Sequence of UniProt P49459 (whole entry, looked up): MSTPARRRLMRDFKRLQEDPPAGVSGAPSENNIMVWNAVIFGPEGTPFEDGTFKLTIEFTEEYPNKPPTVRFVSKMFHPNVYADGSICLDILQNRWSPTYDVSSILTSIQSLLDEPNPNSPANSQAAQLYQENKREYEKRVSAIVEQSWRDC
Method: yeast two-hybrid
Matrix: yeast
Notes: mostly zero background
Reference: not given
Direction: higher = stronger interaction
B1: HLTF RING domain (UniProt Q14527); chain LILSSGSDEECAICLDSLTVPVITHCAHVFCKPCICQVIQNEQPHAKCPLCRNDIHEDNLLE
B2: ZNRF4 RING domain (UniProt Q8WWF5); chain VRTFTWHNDLCAICLDEYEEGDQLKILPCSHTYHCKCIDPWFSQAPRRSCPVCKQSVAATEDSF
B3: MKRN3 RING domain (UniProt Q13064); chain FAVQRGMDKVCGICMEVVYEKANPNDRRFGILSNCNHSFCIRCIRRWRSARQFENRIVKSCPQCRVTSELVIPSE
B4: RNF103 RING domain (UniProt O00237); chain WPADMLHCTECVVCLENFENGCLLMGLPCGHVFHQNCIVMWLAGGRHCCPVCRWPSYKKKQPY
B5: TRIM11 RING domain (UniProt Q96F44); chain LSTNLQEEATCAICLDYFTDPVMTDCGHNFCRECIRRCWGQPEGPYACPECRELSPQRNLRP
B6: MID2 RING domain (UniProt Q9UJV3); chain KMETLESELTCPICLELFEDPLLLPCAHSLCFSCAHRILVSSCSSGESIEPITAFQCPTCRYVISLNHRGL
For `B1 (HLTF RING domain)`, “lacZ reporter activity” read 0.
Under “lacZ reporter activity”, `B2 (ZNRF4 RING domain)` is recorded as 0.
`B3 (MKRN3 RING domain)`: “lacZ reporter activity” 0.
For `B4 (RNF103 RING domain)`, “lacZ reporter activity” read 0.
`B5 (TRIM11 RING domain)` — result for “lacZ reporter activity”: 0.
Under “lacZ reporter activity”, `B6 (MID2 RING domain)` is recorded as 0.

Sample 2
Target: Phosphate system positive regulatory protein PHO4, full length, GST-tagged (PHO4, Saccharomyces cerevisiae, UniProt P07270, residues 1-312)
Method: competition protein-binding microarray
Form: double-stranded DNA, one strand shown
Matrix: in vitro
Concentration: 2 µM
Notes: whole 60-bp probe, lowest competitor level
Together with: Cbf1 competitor, 0.05 µM
Direction: higher = stronger binding
All sequences stand within: … GTCTTGATTCGCTTGACGCTGCTG
Construct (chain): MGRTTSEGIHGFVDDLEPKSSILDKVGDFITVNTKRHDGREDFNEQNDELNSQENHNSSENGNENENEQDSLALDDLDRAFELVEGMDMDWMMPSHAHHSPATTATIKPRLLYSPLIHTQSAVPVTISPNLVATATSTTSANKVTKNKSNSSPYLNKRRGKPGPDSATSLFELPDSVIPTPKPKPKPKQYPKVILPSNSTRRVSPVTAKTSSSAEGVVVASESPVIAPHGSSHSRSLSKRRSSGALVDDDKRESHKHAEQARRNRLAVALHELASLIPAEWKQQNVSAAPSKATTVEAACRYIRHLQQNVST
With `GAAAAAAAATTCTTACGCGTGAACCAAAACAAAAAT` the fluorescence intensity was 6270 a.u.
`CATACCCAACCTTTTCACGTGTATTAAGATATTTGT` gave a fluorescence intensity of 14400 a.u.
`AAATTACTAAGTTTTCACGTGTGATACCCCGTATGA` has a fluorescence intensity of 13400 a.u.
`CATACCCAACCTTGTACTGTGGGTGAAGATATTTGT` gave a fluorescence intensity of 4280 a.u.
With `CTAACGAAGGTTTGAACCGTGGGTGACAAGCCAAGT` the fluorescence intensity was 7140 a.u.
`ATGTTGGAGTTGGGACCGATGAAGTCAGCTTCAATT` has a fluorescence intensity of 3280 a.u.
For `GGATTATTGATAGCCAACGTGCTTTGTTGGAAGACG`, the fluorescence intensity was 14400 a.u.
With `TAATATAACGCCTTTATCGTGGGACTCTTATTAACC` the fluorescence intensity was 5010 a.u.

Sample 3
Target: CCND3, cyclin fold, Cln2 fusion (human)
Method: yeast growth competition, sequencing
Matrix: yeast
Notes: weak parent motif
Reference: not given
Direction: higher = stronger binding
Starting sequence: viral docking peptide; YKVKRRLVFGADD; partner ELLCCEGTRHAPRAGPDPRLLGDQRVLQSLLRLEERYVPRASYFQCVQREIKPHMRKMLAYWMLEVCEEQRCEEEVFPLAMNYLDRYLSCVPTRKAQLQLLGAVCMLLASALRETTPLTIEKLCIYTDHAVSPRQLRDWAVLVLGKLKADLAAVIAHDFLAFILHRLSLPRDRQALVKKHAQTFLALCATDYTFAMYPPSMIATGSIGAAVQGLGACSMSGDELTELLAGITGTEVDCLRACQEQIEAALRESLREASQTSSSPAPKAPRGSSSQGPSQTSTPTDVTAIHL
`K2A` — result for “normalised enrichment score”: 0.11.
`L7P` — result for “normalised enrichment score”: 0.316.
`L7S`: “normalised enrichment score” 0.561.
`F9K`: “normalised enrichment score” 0.0428.
Under “normalised enrichment score”, `R6A` is recorded as 0.278.
`V8F` — result for “normalised enrichment score”: 0.632.
Under “normalised enrichment score”, `V8R` is recorded as 0.0383.
Under “normalised enrichment score”, `R5D` is recorded as 0.0196.
For `R5K`, “normalised enrichment score” read 0.153.
`A11R`: “normalised enrichment score” 0.105.
Under “normalised enrichment score”, `K2M` is recorded as 0.213.
`G10Y` — result for “normalised enrichment score”: 0.136.
For `K2D`, “normalised enrichment score” read 0.166.
For `K4I`, “normalised enrichment score” read -0.188.
Under “normalised enrichment score”, `R5A L7A` is recorded as 0.0858.
Under “normalised enrichment score”, `V8K` is recorded as 0.853.
For `D12M`, “normalised enrichment score” read 0.388.
`F9Y`: “normalised enrichment score” 0.448.
Under “normalised enrichment score”, `V8T` is recorded as -0.175.
Under “normalised enrichment score”, `R5Y` is recorded as 0.141.
`K4G`: “normalised enrichment score” 0.249.
Under “normalised enrichment score”, `R5P` is recorded as -0.115.
Under “normalised enrichment score”, `G10H` is recorded as -0.0825.
Under “normalised enrichment score”, `F9Q` is recorded as 0.658.
`D12W`: “normalised enrichment score” -0.0565.

Sample 4
Target: RING finger protein unkempt homolog, zinc fingers 1-6, GST-SBP tag (UNK, Homo sapiens, UniProt Q9C0B0, residues 30-357)
Method: RNA Bind-n-Seq
Form: RNA
Matrix: in vitro
Concentration: not given
Notes: RNA with constant flanks, human-mouse chimeric sites, ends assumed
Reference: input RNA pool
Direction: higher = stronger binding
All sequences stand within: GGGAGUUCUACAGUCCGACGAUC … CAACAGAGGAUUGAGCAUCA
Target sequence (chain): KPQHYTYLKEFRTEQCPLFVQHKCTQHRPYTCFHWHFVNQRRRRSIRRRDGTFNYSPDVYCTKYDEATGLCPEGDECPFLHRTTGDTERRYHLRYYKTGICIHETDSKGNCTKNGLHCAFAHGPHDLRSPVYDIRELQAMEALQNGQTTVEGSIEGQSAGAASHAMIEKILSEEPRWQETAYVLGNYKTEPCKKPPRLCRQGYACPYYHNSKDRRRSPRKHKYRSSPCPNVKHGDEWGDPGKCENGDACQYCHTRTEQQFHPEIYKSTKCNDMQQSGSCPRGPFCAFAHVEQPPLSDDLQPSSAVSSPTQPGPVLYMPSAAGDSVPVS
For `AUGGAGAAGGAUUCUCUGCCUCGCUUUGUGCGCUCUGAAUUUUAUAAGGAGCUAAUCAAGUAGUCAUCUGGUCAGGCUUCCAAAAGUUGCCCUGUGAGUUGAGUUACAUAAUAACCCGCA`, the bound/input enrichment was 0.138 ratio.
`GCCACCAGAUCCCAGAAACAUGACUCUUGCUGCCUACAAAGAGAAGAUGAAGGAGCUCCCGCUGGUGUCCUUGUUCUGCUCUUGCUUCCUGGCCGAUCCCCUGAAUAAGUCGUCCUACAA` gave a bound/input enrichment of 0.17 ratio.
For `CGCUGGCCCAAGCUGAUGGACUCUGAUGGCCUCCAUCAAGGUAUUAUGUGUGCCUUCUCUUAGUCCCUGUUUUCGGGUCACAAAGCUUCUCAGUACUGUGGUUUGAAAGCACCAGCUUUG`, the bound/input enrichment was 0.101 ratio.
`UUCAAAGAAAAGGGCAGCUGUGUCAUUACUUGGGAGACUCUGGGGGAGGGAAAUUCUGUUCUUUUGUUUAAUUUUCCCCCAGAUAAAGCCAAAGUGUGUGUUGAAGAACUGAGAAAAAAU` has a bound/input enrichment of 0.326 ratio.
With `CACAGAGCAGCACCUACCCCCUCCUCCUUUCCACACCUGCAAACCCUUUUACUUGGGCUGAAUAUUUAGUGUAAUUACAUCUCAGCUUUGAGGGCUCCCUGUGGCAAUUCCCGGAUUAAA` the bound/input enrichment was 0.849 ratio.
`GAGUCGAGCAAACUUGAAACAAUUCGUUAUCUUGCAGCCUCAGUGUUUUUACUUGCCUGGCAAUAGCUGGGGUUUUAUAGGUUCUGGAAGGAGAACUGACGAUGAUGCUGCCGCUGCUGC` has a bound/input enrichment of 0.307 ratio.
With `UGUGCAUAUGAUGCUUGAGAUGGUUUUUGCAAAAGCAGAAAUCGCUGCAAGGUAAUCACAAUAGAUAAAAGUGGUAUUUUAAACCUUUGAAAGGAAUGGAUGUAACUGUACGUUGGUACA` the bound/input enrichment was 0.472 ratio.
For `AGCGUUCAGGAAUUCAUGACCUUUACAAGUCAACUGAUUGUGGAACGCUCGGGGAAAGGCAGCAGAGCUUCUGUCAAAGAACAAGAGUAUCUGUGCCAUGUCUACGUCCGGAGCGACAGU`, the bound/input enrichment was 0.0824 ratio.

Sample 5
Target: HLA class I histocompatibility antigen, A alpha chain, allele A*25:01 (Homo sapiens, UniProt P04439)
Read-out: peptide-MHC binding
Form: peptide
Concentration: concentration not given
Under binding, `YQAENSTAE` is recorded as “inactive”.
Under binding, `PLTNQRYRV` is recorded as “inactive”.
`KQIVIINPM`: binding “inactive”.
`FSSCPVAY` — result for binding: “inactive”.
`EMSLADYLY` — result for binding: “inactive”.
Under binding, `KIVPLPPMY` is recorded as “inactive”.

Some of these lines once more (sample 3):
Under “normalised enrichment score”, `R5Y` is recorded as 0.141.
`K4G`: “normalised enrichment score” 0.249.
Under “normalised enrichment score”, `R5P` is recorded as -0.115.
Under “normalised enrichment score”, `G10H` is recorded as -0.0825.
Under “normalised enrichment score”, `F9Q` is recorded as 0.658.
`D12W`: “normalised enrichment score” -0.0565.
